Measured values collected from several papers.
Each line is one published result; not all experiments were run side by side. Values joined by “and” are separate records of one study, mostly repeats; a detail may differ. ± marks the error that the study gave.

SMILES	target or system	test	system	conditions	scale	measurement	result
C#CCN(C)[C@H](C)Cc1ccccc1	–	HPLC-ECD	MPTP mouse model, striatum	10 mg/kg	–	striatal HVA content	0.566 ng/mg tissue and 1.21 ng/mg tissue and 0.609 ng/mg tissue and 0.732 ng/mg tissue and 1 ng/mg tissue and 0.662 ng/mg tissue and 1.26 ng/mg tissue
Cc1ccc(C(=O)N[C@H]2CC[C@@]3(O)[C@H]4Cc5ccc(O)c6c5[C@@]3(CCN4CC3CC3)[C@H]2O6)s1.Cl	–	antagonist, warm-water tail immersion	Swiss Webster mouse	subcutaneous, added: morphine 10 mg/kg s.c.	–	AD50	1.64 mg/kg
CN1CC[C@]23c4c5ccc(O)c4O[C@H]2[C@@H](O)C=C[C@H]3[C@H]1C5	–	antinociception, tail-flick hot water latency	Sprague-Dawley rat	intraperitoneal, normal rats	–	ED50	3.41 mg/kg
CC(C)=CCN1CC[C@]2(C)c3cc(O)ccc3C[C@H]1[C@H]2C	–	self-administration	male Sprague-Dawley rat	intravenous	–	dose with highest response rate	0.32 mg/kg/injection
CCCC(C(=O)c1ccc2c(c1)OCO2)N1CCCC1.Cl (racemic)	–	HPLC-ECD	rat, striatum postmortem	dose not given, 40 and 240 min	–	5-HIAA level	no effect
O=C(O)/C=C/C(=O)O.Oc1cccc2[nH]cc(CCNC3CCCCC3)c12	–	–	C57BL/6J mice	subcutaneous, 1 mg/kg	relative to: pre-session baseline	body temperature change	0.2 ± 0.1 °C
O=S(=O)(O)CCS	human coronavirus OC43	virus-induced cell killing	MRC-5	maximum over 10 doses	–	maximum inhibition	1.2%
CC(C)C[C@H](CN)CC(=O)O	–	whole-cell current clamp	DRG neurons, rat, spinal cord injury	10 µM, overnight, added: nimodipine 5 µM	–	action potential threshold	-37.3 mV and -39.2 mV and -36.5 mV and -33.4 mV and -36 mV and -33.6 mV
CCNCCc1c[nH]c2cccc(O)c12.CCNCCc1c[nH]c2cccc(O)c12.O=C(O)CCC(=O)O	–	–	C57BL/6J mice	subcutaneous, 30 mg/kg	relative to: pre-session	body temperature change	-5.4 ± 0.5 °C
Cc1cc2c(C(C)C)c(O)c(O)c(C=O)c2c(O)c1-c1c(C)cc2c(C(C)C)c(O)c(O)c(C=O)c2c1O	human coronavirus OC43	virus-induced cell killing	MRC-5	screen	–	maximum inhibition	14.5%
COc1cc(CC(C)N)c(OC)cc1C.Cl (racemic)	–	stimulus generalization, drug discrimination	Sprague-Dawley rat	i.p., added: trained on 1.0 mg/kg compound vs saline	–	ED50	1.25 µmol/kg
C=CCNCCc1c[nH]c2cccc(O)c12.C=CCNCCc1c[nH]c2cccc(O)c12.O=C(O)/C=C/C(=O)O	–	–	C57BL/6J mice	subcutaneous, 0.1 mg/kg	relative to: pre-session baseline	body temperature change	-0.1 ± 0.1 °C
COc1ccc2[nH]cc(CCN(C)C)c2c1	–	DOM stimulus generalization	rat trained on DOM	intraperitoneal, training dose 1.0 mg/kg DOM	–	ED50	2.79 µmol/kg
CC(C)(C)NCCc1c[nH]c2cccc(O)c12.CC(C)(C)NCCc1c[nH]c2cccc(O)c12.O=C(O)/C=C/C(=O)O	–	–	C57BL/6J mice	subcutaneous, 1 mg/kg	relative to: pre-session baseline	body temperature change	0.1 ± 0.2 °C
C[C@]12CC[C@H]3[C@@H](CC=C4CC(O)CC[C@@]43CO)[C@@H]1CCC2O (stereo partly drawn)	–	–	GAN diet MASH rats	ip, 20 mg/kg, two weeks	relative to: GAN vehicle	plasma insulin level	decreased
CN1CC[C@]23c4c5ccc(O)c4O[C@H]2[C@@H](OS(=O)(=O)O)C=C[C@H]3[C@H]1C5	–	antinociception, tail-flick hot water latency	Sprague-Dawley rat	intraperitoneal, normal rats	–	ED50	0.82 mg/kg
CCCNCCc1c[nH]c2cccc(O)c12.CCCNCCc1c[nH]c2cccc(O)c12.O=C(O)/C=C/C(=O)O	–	–	C57BL/6J mice	subcutaneous, 0.03 mg/kg	relative to: pre-session baseline	body temperature change	-0.4 ± 0.2 °C
C=CCN1CC[C@]23c4c5ccc(O)c4O[C@H]2C(=O)CC[C@@]3(O)[C@H]1C5	–	formalin test	male ICR-CD1 mice	sc, 5 mg/kg, 15 to 30 min	–	paw licking time	76 s and 112 s and 93 s

Excerpt of the above:
SMILES	target or system	test	system	conditions	scale	measurement	result
CN1CC[C@]23c4c5ccc(O)c4O[C@H]2[C@@H](OS(=O)(=O)O)C=C[C@H]3[C@H]1C5	–	antinociception, tail-flick hot water latency	Sprague-Dawley rat	intraperitoneal, normal rats	–	ED50	0.82 mg/kg
